# Measured values gathered from unrelated publications.
# Parts stem from different laboratories: compare values within a part only.

# Set 1
# Cell line: normal adjacent epithelium patient-derived organoids
# Method: CellTiter-Glo
# Concentration: 1 µM
# Setting: mean of five organoid lines
# Baseline: DMSO
Compound,viability [%]
CN(C(=O)c1ccccc1)c1cc(N(C)c2ccc3c(c2)CCc2ccc(C(=O)NCCN4CCOCC4)cc2C3=O)ccc1F,109
Cc1c(N2CCNCC2)nc2ccc(Br)cc2c1C(=O)NC[C@H](CCC(=O)O)c1ccccc1Cl,102
C[C@H](NC(=O)c1cnc2n1[C@](C)(Cc1ccc(C#N)cc1)C(=O)N2c1cc(Cl)c(F)c(Cl)c1)C(=O)NC1(c2ccccn2)CC1,109
CN(C)C(=O)Cn1cc(-c2nc(C3(c4ccc(-c5cnc(N)nc5)cc4)CC3)no2)cn1,98.3
O=C(Nc1cccnn1)N1CCC(=Cc2cccc(Oc3ccc(C(F)(F)F)cn3)c2)CC1,99.3
Cc1c(NC(=O)c2ccc(C(C)(C)C)cc2)cccc1-c1cn(C)c(=O)c(Nc2ccc(C(=O)N3CCOCC3)cc2)n1,108
CC(=O)C1=C(C)N(c2cccc(C(F)(F)F)c2)C(=O)N[C@H]1c1ccc(C#N)nc1,108
O=C(NC[C@@H]1[C@H]2CN(C(=O)OCc3cc(C(F)(F)F)cc(C(F)(F)F)c3)C[C@@H]12)c1ccc2[nH]nnc2c1,94.3
CO[C@@H](C)c1c(Nc2ccc([C@H](N(C)C(=O)C3CCS(=O)(=O)CC3)C(F)(F)F)cc2)cnc2cc(Cl)nn12,89.2
CC(=O)Nc1c(F)cc(C(=O)N[C@H]2CC[C@H](O)CC2)cc1O[C@@H](C)c1ccccc1,91.8
Cc1ccc2nc(CNCCCOc3ccccc3)cc(O)c2c1,122
O=C(NCc1ncc(C(F)(F)F)cc1Cl)c1ccc2c(c1)C1(CCS(=O)(=O)CC1)[C@@H](C1CC1)N2S(=O)(=O)c1ccc(F)cc1,107
CC(=O)Nc1c(C(C)=O)c(=O)n(C)c2nc(-c3ccc(Cl)cc3Cl)c(-c3ccc(Cl)cc3)cc12,104
c1ccc(N2CCN(Cc3nc4ccccc4[nH]3)CC2)nc1,111

# Set 2
# Method: logD(dd/w) and ALogP
# Setting: JT method
Structure (SMILES),lipophilic permeability efficiency
CC(C)C[C@@H]1NC(=O)[C@H](CC(C)C)NC(=O)[C@H](CC(C)C)NC(=O)[C@H](C(C)C)NC(=O)[C@H](C)NC(=O)[C@H](CCC(=O)N2CCCC2)NC(=O)[C@H](C)NC1=O,1.95
CC(C)C[C@@H]1NC(=O)[C@H](CC(C)C)NC(=O)[C@@H](CC(C)C)NC(=O)[C@H](C(C)C)NC(=O)[C@H](C)NC(=O)[C@H](C)NC(=O)[C@H](CCC(=O)N2CCCC2)NC1=O,1.33
CC(C)C[C@@H]1NC(=O)[C@H](C)NC(=O)[C@@H](Cc2cscn2)NC(=O)[C@@H](CC(C)C)NC(=O)[C@H](C)NC(=O)[C@H](CC(C)C)NC(=O)[C@H](CC(C)C)NC1=O,2.37
CC(C)C[C@@H]1NC(=O)[C@H](C(C)C)NC(=O)[C@H](Cc2cscn2)NC(=O)[C@H](CCC(=O)N2CCCC2)NC(=O)[C@@H](CCC(=O)N2CCCC2)NC(=O)[C@H](CC(C)C)NC(=O)[C@@H](CC(C)C)NC1=O,1.78
CC(C)C[C@@H]1NC(=O)[C@H](C)NC(=O)[C@H](CC(C)C)NC(=O)[C@@H](CC(C)C)NC(=O)[C@H](CC(C)C)NC(=O)[C@@H](C)NC(=O)[C@@H](CC(C)C)NC1=O,1.79
CC(C)C[C@@H]1NC(=O)[C@H](C)NC(=O)[C@H](CCC(=O)N2CCCC2)NC(=O)[C@H](CCC(=O)N2CCCC2)NC(=O)[C@@H](CCC(=O)N2CCCC2)NC(=O)[C@H](CC(C)C)NC(=O)[C@@H](CC(C)C)NC1=O,2.47

# Set 3
# Host: mouse
# Medium: microsomes or S9
# Concentration: 2 µM
# Time: 0.5 h
SMILES,remaining compound [%]
CC1=C2C(CCS2(=O)=O)CC2(C1)C(=O)OC(C)(C)OC2=O (centres unmarked),> 99
CN(C)CCNC(=O)C1c2ccccc2Oc2ccccc21,20.4
Cc1sc2[nH]c(=O)n3nc(-c4ccncc4)nc3c2c1C,19.7
CCc1c(C(=O)NCC(OC)C(C)(C)C)cnc2c1c(=O)n(C)c(=O)n2C (centres unmarked),8.78
O=C(c1cn2cc(Cl)ccc2n1)N1CCC(c2ccc(Cc3ccccc3F)cn2)CC1,2.89
CCCC1(c2ccccc2)OC(=O)C(C)=C1c1ccccc1 (centres unmarked),81.7
CC1=CC[C@H]2C(C)(C)[C@H](O)CC[C@]2(C)[C@H]1COc1ccc2ccc(=O)oc2c1,14
COC(=O)c1c(SC)nn2c(=S)[nH]cnc12,86.8

# Set 4
# Target: Serine/threonine-protein kinase BRSK2 (BRSK2, Homo sapiens, UniProt Q8IWQ3)
# Observed: enzyme activity
# Mode: inhibitor
# Concentration: 0.5 µM
# Baseline: control
# Residues (Q8IWQ3 1-736): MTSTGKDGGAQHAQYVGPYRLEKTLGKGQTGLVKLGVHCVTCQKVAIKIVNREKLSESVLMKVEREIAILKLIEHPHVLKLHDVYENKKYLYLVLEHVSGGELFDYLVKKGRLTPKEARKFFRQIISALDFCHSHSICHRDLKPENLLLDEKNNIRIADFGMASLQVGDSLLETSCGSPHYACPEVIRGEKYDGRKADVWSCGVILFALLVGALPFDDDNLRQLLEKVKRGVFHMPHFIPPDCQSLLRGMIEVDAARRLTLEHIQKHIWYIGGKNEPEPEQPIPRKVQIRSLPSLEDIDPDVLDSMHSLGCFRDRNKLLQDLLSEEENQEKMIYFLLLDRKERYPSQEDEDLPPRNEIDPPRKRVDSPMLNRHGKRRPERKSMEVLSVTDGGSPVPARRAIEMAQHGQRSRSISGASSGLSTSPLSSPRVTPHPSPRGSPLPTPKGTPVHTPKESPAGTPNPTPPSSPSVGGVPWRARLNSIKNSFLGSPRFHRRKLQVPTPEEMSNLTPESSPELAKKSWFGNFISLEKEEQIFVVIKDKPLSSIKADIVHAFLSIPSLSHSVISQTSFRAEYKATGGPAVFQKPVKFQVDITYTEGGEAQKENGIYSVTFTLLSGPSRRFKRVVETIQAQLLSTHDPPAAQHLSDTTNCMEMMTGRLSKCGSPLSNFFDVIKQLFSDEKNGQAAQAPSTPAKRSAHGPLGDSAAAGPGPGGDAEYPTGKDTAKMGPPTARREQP
SMILES,remaining activity
CC(=O)c1ccc(N2CCOCC2)cc1O,100%
COc1ccc(S(=O)(=O)N(CCO)c2ccccc2CN(C)CC=Cc2ccc(Cl)cc2)cc1,103%
O=S(=O)(NCCNC/C=C/c1ccc(Br)cc1)c1cccc2cnccc12,92.4%
Oc1ccc(Nc2nc(-c3ccc(Cl)cc3)cs2)cc1,101%
Cc1ccc(NC2=CC(=O)c3sc(C)nc3C2=O)cc1,93.1%
CCc1[nH]c(-c2ccc(OC)cc2)nc1-c1ccncc1,105%
NC(=O)c1ccc(N(C(N)=O)c2c(F)cccc2F)nc1-c1ccc(F)cc1F,96.6%
CC#CC(=O)Nc1cc2c(Nc3ccc(F)c(Cl)c3)ncnc2cn1,93.3%
Cc1cncc2cccc(S(=O)(=O)N3CCCN(C(=O)CN)C[C@@H]3C)c12,85.4%
Cc1cc(Nc2nc(-c3ccccc3)nc3ccccc23)n[nH]1,61.4%

# Excerpt of the above (set 4):
SMILES,remaining activity
COc1ccc(S(=O)(=O)N(CCO)c2ccccc2CN(C)CC=Cc2ccc(Cl)cc2)cc1,103%
O=S(=O)(NCCNC/C=C/c1ccc(Br)cc1)c1cccc2cnccc12,92.4%
Oc1ccc(Nc2nc(-c3ccc(Cl)cc3)cs2)cc1,101%
Cc1ccc(NC2=CC(=O)c3sc(C)nc3C2=O)cc1,93.1%
CCc1[nH]c(-c2ccc(OC)cc2)nc1-c1ccncc1,105%
